Published values of several laboratories.
Compare with care: the assays were run in different laboratories. Values joined by “and” are separate records of one study, mostly repeats; a detail may differ. Numbers after ± are the reported error.
folP: Dihydropteroate synthase (folP, Bacteria, UniProt P0AC13)
Large ribosomal subunit protein uL14: Large ribosomal subunit protein uL14 (Homo sapiens, UniProt P62829)
T1: RNA aptamer; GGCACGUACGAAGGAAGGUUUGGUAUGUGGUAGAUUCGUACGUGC
T2: RNA aptamer; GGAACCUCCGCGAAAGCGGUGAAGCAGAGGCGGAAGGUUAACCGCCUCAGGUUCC

Structure (SMILES)	target	test	system	conditions	how to read	measurement	result
CC(=O)N[C@@H](CCC(=O)O)C(=O)N[C@@H](CCC(=O)O)C(=O)N[C@@H](CCC(=O)O)C(=O)N[C@@H](Cc1c[nH]c2ccccc12)C(=O)N[C@@H](C)C(=O)N[C@@H](CCCNC(=N)N)C(=O)N[C@@H](CCC(=O)O)C(=O)N[C@@H](C)C(=O)NCC(=O)N[C@@H](C)C(=O)N[C@@H](CCC(N)=O)C(=O)N[C@@H](CC(C)C)C(=O)N[C@@H](CCCNC(=N)N)C(=O)N[C@@H](CCCNC(=N)N)C(=O)N[C@@H](C)C(=O)N[C@@H](C)C(=O)N[C@@H](CC(=O)O)C(=O)N[C@@H](CC(=O)O)C(=O)N[C@@H](CC(C)C)C(=O)N[C@@H](CC(N)=O)C(=O)N[C@@H](C)C(=O)N[C@@H](CCC(N)=O)C(=O)N[C@@H](Cc1ccc(O)cc1)C(=O)N[C@@H](CCC(=O)O)C(=O)N[C@@H](CCCNC(=N)N)C(=O)N[C@@H](CCCNC(=N)N)C(=O)N[C@@H](CCCNC(=N)N)C(N)=O	Induced myeloid leukemia cell differentiation protein Mcl-1 homolog, residues 152-308 (Mus musculus, UniProt P97287)	binding, SPR	–	–	reference: PUMA peptide	ΔΔG	0.91 kcal/mol
Fc1ccc(Nc2nc(NC3CCCCC3)c3cc(Br)ccc3n2)cc1F	ADRB2 (Homo sapiens, UniProt P07550, I159A)	β-arrestin2 recruitment, antagonist, BRET	–	mutant I159A	reference: isoprenaline maximal response	maximal inhibition	0.8%
Cn1c(=O)n(C2CCC(=O)NC2=O)c2ccc(C3CCN(CC(=O)Nc4cccc(CS(=O)(=O)N5CC[C@H](Nc6cccc(-c7sc(C(=O)O)c(OCC(=O)O)c7Cl)c6)CC5(C)C)c4)CC3)cc21 (stereo partly drawn)	PTPN1 (Homo sapiens, UniProt P18031)	degrader, bio-layer interferometry	–	31.3 nM, biotinylated protein immobilised	higher = more binding	BLI binding response	0.0945 a.u.
CC1(C)CC[C@@]2(CO)C(=C3C=C[C@@H]4[C@@]5(C)CC[C@H](O)[C@@](C)(CO)[C@@H]5CC[C@@]4(C)[C@]3(C)C[C@@H]2O)C1	SIRT1 (Homo sapiens, UniProt Q96EB6)	binding, microscale thermophoresis	–	37.6 nM	–	MST normalised fluorescence	910 a.u.
CCN(CC)C(CO)c1cccc2c(C)c(C)oc12 (stereo not drawn)	LPAR1 (Homo sapiens, UniProt Q92633, W271A)	G-protein dissociation, agonist, NanoBiT	HEK-293T	100 pM, W271A mutant	reference: baseline luminescence	fold change	1.03 and 1 and 0.983 and 1.01 and 1.02
CC[C@H](C)[C@H](NC(=O)[C@H](Cc1c[nH]cn1)NC(C)=O)C(=O)N[C@@H](CCCCN)C(=O)N[C@H](C(=O)N[C@@H](Cc1c[nH]cn1)C(=O)N[C@@H](CC(C)C)C(=O)N[C@@H](CC(=O)O)C(=O)N[C@@H](CCC(=O)O)C(=O)N[C@@H](CCC(=O)O)C(=O)N[C@H](C(=O)NCC(=O)N[C@@H](CCC(=O)O)C(=O)N[C@@H](CCCCN)C(=O)N[C@H](C(=O)N[C@@H](CO)C(=O)N[C@H](C(=O)N[C@H](C(=O)N[C@@H](CC(C)C)C(=O)N[C@@H](CC(=O)O)C(=O)N[C@H](C(N)=O)C(C)C)[C@@H](C)O)[C@@H](C)CC)[C@@H](C)O)[C@@H](C)O)[C@@H](C)O	Kelch-like ECH-associated protein 1, Kelch domain (KEAP1, Homo sapiens, UniProt Q14145)	binding, ITC	–	pH 7, 298.15 K	–	ΔH	-19.3 ± 0.123 kcal/mol
COc1ccc(-c2ccc3c(c2)C(=Cc2sc4ccccc4[n+]2CC(=O)NCCOCCOCCOCCNC(=O)CCCC[C@@H]2SC[C@@H]4NC(=O)N[C@@H]42)C=CN3C)cc1	T1, RNA aptamer	fluorescence titration	–	–	–	Kd	64.2 nM
CCOC(=O)Cc1n[nH]c2nc(N)[nH]c(=O)c2c1=O	folP	CETSA HiBiT	Escherichia coli, whole cells	concentration not given	reference: whole cell over lysate ΔTm	target engagement efficiency	18.7%
CCCCCCCCCCOc1c(O)cc(C(=O)OC2Cc3c(O)cc(O)cc3OC2c2cc(O)c(O)c(O)c2)cc1O (stereo not drawn)	Albumin (ALB, Homo sapiens, UniProt P02768)	Scatchard plot	–	concentration not given, added: 10 µM HSA	–	number of binding sites	1.27
CCCCCC(O)/C=C/C=O (stereo not drawn)	Large ribosomal subunit protein uL14	competitive isoTOP-ABPP, refers to: RPL23 cysteine peptide	proteome, soluble, MDA-MB-231	100 µM, added: iodoacetamide probe	reference: DMSO over compound-treated, higher = stronger cysteine blockade	isoTOP-ABPP competition ratio	1.7
CC(C(=O)O)c1n[nH]c2nc(N)[nH]c(=O)c2c1=O (stereo not drawn)	folP	CETSA HiBiT	Escherichia coli, whole cells	concentration not given	reference: DMSO	melting temperature shift	4.93 °C
CN1C=CC(=Cc2sc3ccccc3[n+]2CC(=O)NCCOCCOCCOCCNC(=O)CCCC[C@@H]2SC[C@@H]3NC(=O)N[C@@H]32)c2ccccc21	T1, RNA aptamer	fluorescence titration	–	–	–	Kd	2.93 nM
COC(=O)[C@@]1(Cc2ccccc2)C=C(C(=O)OC(C)(C)C)C(=O)CC1	MAPK14 (Homo sapiens, UniProt Q16539, C119V)	peptide binding, fluorescence polarization	–	125 µM	–	fraction bound	0.11
CCCCCCCO[C@H]1CO[C@H](CO)[C@@H](O)[C@H](O)[C@@H]1O	Type 1 fimbrin D-mannose specific adhesin, lectin domain (fimH, Escherichia coli K-12, UniProt P08191)	isothermal titration calorimetry	–	concentration not given, 15 °C	–	enthalpy change (ΔH obs)	-9.56 kcal/mol
Cn1nc(COC(=O)c2ccccc2)c(=O)c2c(=O)[nH]c(N)nc21	folP	CETSA HiBiT	Escherichia coli, whole cells	concentration not given	reference: whole cell over lysate ΔTm	target engagement efficiency	37.9%
COc1cc(Nc2nccc(-c3cnn4nc(OC)ccc34)n2)cc(C(F)(F)F)c1	Tyrosine-protein kinase ABL1, phosphorylated (ABL1, Homo sapiens, UniProt P00519, Q252H)	binding	–	1 µM	–	remaining binding	85%
Cn1nc(C(=O)O)c(=O)c2c(=O)[nH]c(N)nc21	folP	CETSA HiBiT	whole cells	–	–	melting temperature	65.6 °C
CCCCC1(CC)C(=O)N(c2cccc(CN3CCN(Cc4ccc(Br)cc4)CC3)c2)C1=O	DPP9 (Homo sapiens, UniProt Q86TI2)	enzyme activity, inhibitor	–	5 µM	–	activity vs control	> 90%

Structure (SMILES)	target	test	system	conditions	how to read	measurement	result
CCCCCC=CC=C1C(=O)C=CC1CC=CCCCC(=O)O (stereo not drawn)	Large ribosomal subunit protein uL14	competitive isoTOP-ABPP, refers to: RPL23 cysteine peptide	proteome, soluble, MDA-MB-231	100 µM, added: iodoacetamide probe	reference: DMSO over compound-treated, higher = stronger cysteine blockade	isoTOP-ABPP competition ratio	4.8
NC(=O)[C@H](Cc1c[nH]c2ccccc12)NC(=O)[C@@H]1C[C@H]2CCCC[C@@H]2N1C(=O)[C@H](Cc1c[nH]c2ccccc12)NC(=O)CCl	PIN1 (Homo sapiens, UniProt Q13526)	protein denaturation, thermal shift	–	–	–	second transition share	20%
CC1CCCN(CCCNC(=O)C2=Cc3sc4c(c3CS2)CCCC4)C1 (stereo not drawn)	Catenin beta-1, residues 141-305 (CTNNB1, Homo sapiens, UniProt P35222)	ITC	–	concentration not given, 25 °C	–	binding stoichiometry	1.11
CC[C@@H](C)[C@@H](NC(=O)[C@@H](Cc1ccc(O)cc1)NC(=O)[C@H]1CCCN1C(=O)[C@@H](CCCNC(=N)N)NC(=O)[C@H](N)Cc1c[nH]cn1)C(=O)N[C@H](C)C(=O)N[C@H](Cc1c[nH]cn1)C(=O)NCC(=O)NCC(=O)NCC(=O)N[C@@H](CCCCNC(=O)CCCC[C@@H]1SC[C@@H]2NC(=O)N[C@@H]21)C(N)=O	CD274 (Homo sapiens, UniProt Q9NZQ7)	flow cytometry	hPD-L1-expressing cells	concentration not given	–	binding rate	1.56% and 1.49% and 1.79%
CN(C)c1ccc2c(-c3ccccc3C(=O)[N-]S(=O)(=O)N(C)C)c3ccc(=[N+](C)C)cc-3oc2c1	T2, RNA aptamer	fluorescence titration, quadratic fit	–	room temperature, K+ 125 mM, lower bound printed, added: Mg2+ 1 mM	–	Kd	> 2300 nM
CC(C)[C@@H]1NC(=O)[C@H](Cc2ccccc2)NC(=O)CSC[C@@H](C(N)=O)NC(=O)[C@H](CCC(=O)O)NC(=O)[C@H](CO)NC(=O)[C@H](Cc2c[nH]c3cccc(Cl)c23)NC(=O)[C@H](C2CCCCC2)NC(=O)[C@H](C(C)C)NC(=O)[C@H](Cc2ccc(O)cc2)NC(=O)[C@H](CC(=O)O)NC(=O)[C@H](Cc2c[nH]c3ccccc23)NC(=O)[C@H](Cc2ccc(N)nc2)NC(=O)[C@H](Cc2c[nH]c3ccc(Cl)cc23)NC(=O)[C@H](CCC(=O)O)NC1=O	Interleukin-1 receptor-like 2 (IL1RL2, Homo sapiens, UniProt Q9HB29)	reporter gene (SEAP), inhibitor, HEK-Blue IL-36R reporter	HEK-Blue IL-36R cells	0.41 µM, 6 h, added: IL-36β 3 ng/mL	–	remaining activity	87.6%
CN(C)CCCSC(=S)N1CCN(C(=O)/C=C/c2coc3ccccc3c2=O)CC1	Nucleoprotein (N, Tomato spotted wilt virus, UniProt P25999)	binding, microscale thermophoresis	–	500 µM	dose series	normalised MST response	0.762
COc1ccccc1-c1ccncc1C(=O)Nc1nnc(OCc2ccc(Cl)cc2)s1	RECQL5 (Homo sapiens, UniProt O94762)	ATPase activity, ADP-Glo	–	30 µM, 1 h	–	remaining activity	95%
O=C1c2sc(-c3ccc(N4CCC(F)C4)nc3F)nc2CCN1c1cccnc1 (stereo not drawn)	TAR DNA-binding protein 43, aggregated (TARDBP, Homo sapiens, UniProt Q13148)	radioligand binding	human, FTLD-TDP type B sarkosyl-insoluble extract	72.89 nM	–	specific binding	2.22 nM and 1.99 nM
Cn1nnnc1NCc1nn(C)c2nc(N)[nH]c(=O)c2c1=O	folP	CETSA HiBiT	Escherichia coli, cell lysate	concentration not given	reference: DMSO	melting temperature shift	12 °C
O=C1c2sc(-c3ccc(N4CCC(CO)CC4)nc3F)nc2CCN1c1cccnc1	SLC6A2 (Homo sapiens, UniProt P23975)	ligand displacement, radioligand	–	1 µM	–	inhibition	-16%
OCC1OC(n2cc(-c3ccc(F)cc3F)nn2)C(O)C(O)C1O (stereo not drawn)	Protein Mdm4 (MDM4, Homo sapiens, UniProt O15151)	thermal stability, DSF	–	30 µM	–	ΔTm	1.17 °C
NCc1cc2c(cc1F)C(=O)N(C1CCC(=O)NC1=O)C2 (stereo not drawn)	Cereblon/Casein kinase I alpha (CSNK1A1/CRBN, Homo sapiens, UniProt P48729+Q96SW2)	protein degradation, degrader, Western blot	Hep3B	24 h	–	Dmax	97%
CC[C@H](C)[C@H](NC(=O)[C@H](CCC(=O)O)NC(=O)[C@H](CCC(=O)O)NC(=O)[C@H](Cc1ccccc1)NC(=O)[C@H](CCCCN)NC(=O)[C@@H]1CCCN1C(=O)[C@H](Cc1c[nH]cn1)NC(=O)[C@H](CCCCN)NC(=O)[C@H](CO)NC(=O)[C@H](CC(C)C)NC(=O)[C@H](Cc1c[nH]cn1)NC(C)=O)C(=O)N[C@@H](CC(C)C)C(=O)N[C@H](C(=O)N[C@@H](CCCNC(=N)N)C(=O)N[C@@H](CC(C)C)C(=O)N[C@@H](CCCNC(=N)N)C(=O)N[C@@H](CC(C)C)C(=O)N[C@@H](CCC(N)=O)C(N)=O)[C@@H](C)O	Calmodulin-1, C-lobe (CALM1, Homo sapiens, UniProt P0DP23)	ITC	–	concentration not given, C-lobe fragment, added: CaCl2 1 mM	–	binding enthalpy	-1.1 ± 0.0239 kcal/mol
C[C@@H](Nc1nc(N[C@H](C)C(F)(F)F)nc(-c2cccc(Cl)n2)n1)C(F)(F)F	Isocitrate dehydrogenase [NADP], mitochondrial, heterodimer with wild-type (IDH2, Homo sapiens, UniProt P48735, R140Q)	forward reaction	–	16 h preincubation, wild type	–	maximum inhibition	59.2 ± 1.9%
CCC1Sc2ccc(S(=O)(=O)CCC(=O)Nc3cccc4ccccc34)cc2NC1=O (stereo not drawn)	P2X purinoceptor 7 (Ailuropoda melanoleuca, UniProt G1M6C4)	ATP-evoked current, inhibitor, whole-cell patch clamp	HEK293 transfected	0.3 µM, wild type	–	remaining current	84.7%
Cn1nc(CCCC(=O)O)c(=O)c2c(=O)[nH]c(N)nc21	folP	CETSA HiBiT	whole cells	–	–	melting temperature	64.7 °C
COc1cc(/C=C/c2ccc(O)cc2)cc(OC)c1	O-methyltransferase (Sorghum bicolor, UniProt A0A1B6PFV1)	biolayer interferometry	–	added: SAH+	–	cooperativity factor σ	22.7
